Experimental data gathered from unrelated publications.
Numbered parts are unrelated; each lists some results of a single study. Positions count from the first letter of the parent shown.

Series 1
Target: RNA binding protein fox-1 homolog 2, RRM domain, GST-SBP tag (RBFOX2, Homo sapiens, UniProt O43251-10, residues 100-194)
Technique: RNA Bind-n-Seq
Form: RNA
Matrix: in vitro
Tested at: 365 nM
Notes: natural RNA segment, single round, ends assumed
Relative to: no-protein control
Reading: higher = stronger binding
Shared flanks, not repeated: GGGAGUUCUACAGUCCGACGAUC … UGGAAUUCUCGGGUGCCAA
Residues (chain): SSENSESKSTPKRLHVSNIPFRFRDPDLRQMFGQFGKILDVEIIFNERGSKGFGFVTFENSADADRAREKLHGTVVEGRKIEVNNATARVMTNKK
Sequence	RBNS enrichment (R)
UUCCCACCCAGAACCCUUCUUGUGAGAGAUGCGCACUUUAAAGGGUGAUUUUGUUCCAGAUGUCUAUGGCUGGGUGUGUGGGGGAGGAGCACUCUCAUCUGCAGGACUCU	0.603
ACCCUUGGGUUUGCCUUAGAACACUGACACUAAGAACCUGGAAUGACAUGGGGAGGACAAAGAGAGCUCAAGAGGAAUGCUUUGUGAGAAGUGGAUUCUCUCCGUGUCCC	1.46
UAGCAGCAGAACACAUUGAUCUGGCUUACUACUCAACAGGAGGGAAAGUCUGAAAGUUGAUAAGCUAGUUCGACUCCUUUAUAAUGAGAACCUGACAUCAGAGGAGAGUG	0.603
CAAUUACAGAGCACAAUGACUGUCGUUGGAUAUAUAUGUAUAUGUAUAUGUAUAUUAUAUGUAUAUGUACACAUAUAUAUUCUAUUAUUAGGCAUACAAGUGGCUCCUGU	0.298
UUGUCAGUGGAAUGCAGUUUUUUUACUAUUCCAUCAUGAGGAACAACAUAGAUUCCAUGAUCUUUUUAAUGACAGUACAGACUGAGAUUUGAAGGAAACAUGCACAAAUC	0.371
AAAAAUUAGCUGGGCAUGAUGGCAUGCUCCUGUGGUCCCAGCUACUUGGGAGGCUGAGGCAGGAGGAUCACUUGGUCCCAGGAGUUUGAGGCGACAGUGAGCUAGGAUCG	7.01
CUACUGUAGGAUCUUACAUUCUGUUAGUAGUACAAAGGGAAGAGUUUUCCUAAUCCUUCCUUACCAUAUCCUACACAGCAAAAUCCUUUUAGACAUAUAUUGCCAAGCCA	0.283
GUGUACUUUUGGUCAUCCUGGGAUGCUUCUAACUUCACUGUGUGUAGGCGUUUGCCUUGGAAAUGUGGAAAGUGCUUUACUAAAUAAUAAAAUUAAUUUUGUUUACGAGU	0.774

Series 2
Target: PABPC1L2, full length, GST fusion (mouse, UniProt A0ABA7IW68)
Technique: RNAcompete
Form: RNA
Matrix: in vitro
Tested at: 20 nM
Notes: 7-mer, probes averaged, single round
Relative to: mean of 7-mers
Reading: higher = stronger binding
Target sequence (chain): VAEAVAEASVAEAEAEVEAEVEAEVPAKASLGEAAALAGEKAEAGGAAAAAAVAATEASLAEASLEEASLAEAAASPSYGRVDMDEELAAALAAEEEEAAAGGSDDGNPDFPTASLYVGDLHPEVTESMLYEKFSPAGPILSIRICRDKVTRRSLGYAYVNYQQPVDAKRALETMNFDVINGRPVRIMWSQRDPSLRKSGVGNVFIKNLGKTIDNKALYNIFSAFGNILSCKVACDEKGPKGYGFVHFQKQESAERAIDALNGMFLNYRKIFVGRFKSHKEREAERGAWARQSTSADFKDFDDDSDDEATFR
Sequence	7-mer Z-score
GGGUGUG	0.167
CGCGAGA	-0.112
AUGGGUC	0.108
CAGUUUU	-0.322
UAUCGCA	-0.318
GGAGCAG	0.119
UACCCGA	-0.153
GAAUGCC	-0.113
UGUGACU	-0.251
UCAGAGC	-0.213
UUUAUAU	-0.133
AGAGUGU	-0.199
GCGCGGG	0.148
UGCAUGG	0.0189
UGCCACU	-0.249
AGGUCCC	-0.342
CUGCGCG	-0.242
UUAGAUU	-0.179
AUUAUAA	0.323
UUGGGAC	0.387
GGUUCAG	-0.0953
CAGGAGA	0.224
GUAAAGA	0.769
UGAACCC	-0.26
CACCAUA	0.215

Series 3
Target: ABI1, truncated, D143A, DHFR fusion (Arabidopsis thaliana)
Technique: DHFR PCA, deep sequencing
Matrix: yeast
Notes: methotrexate growth selection, single substitutions
Together with: (+)-ABA 58 µM
Relative to: wild-type fitted maximum
Reading: higher = stronger binding
Starting sequence: PYL1, truncated, DHFR fusion (Arabidopsis thaliana); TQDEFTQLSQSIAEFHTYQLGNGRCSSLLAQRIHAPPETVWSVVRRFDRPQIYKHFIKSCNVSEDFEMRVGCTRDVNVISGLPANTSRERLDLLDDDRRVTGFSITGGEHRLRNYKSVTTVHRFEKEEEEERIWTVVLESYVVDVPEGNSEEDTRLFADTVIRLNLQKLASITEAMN; partner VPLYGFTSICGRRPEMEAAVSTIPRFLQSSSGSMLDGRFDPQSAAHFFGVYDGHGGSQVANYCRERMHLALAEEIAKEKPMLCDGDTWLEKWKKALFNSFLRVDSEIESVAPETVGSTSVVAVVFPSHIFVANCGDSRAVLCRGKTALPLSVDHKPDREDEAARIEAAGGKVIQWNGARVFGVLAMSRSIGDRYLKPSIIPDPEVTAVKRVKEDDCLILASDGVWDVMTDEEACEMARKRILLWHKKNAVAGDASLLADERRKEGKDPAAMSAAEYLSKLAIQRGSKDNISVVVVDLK
Substitution	relative binding score [%]
T6Y	79.4
A84W	54.6
G23Q	76.5
I172R	48.1
L29C	72.9
A30R	85
D95S	54.5
E67H	79.1
R111S	40
T120N	-0.122
Q167C	76.1
R111N	59.8
E127R	87.4
A13C	74.8
L164M	87.5
N77H	99.7
T160I	56.9
H122I	11.4

Series 4
Target: Histone acetyltransferase KAT6A, winged helix 1, GST fusion (KAT6A, Homo sapiens, UniProt Q92794, residues 1-85)
Technique: protein binding microarray
Form: double-stranded DNA, one strand shown
Matrix: in vitro
Tested at: not given
Notes: 8-mer, flanks averaged, mean of 2 arrays, mostly near background
Relative to: not given
Reading: higher = stronger binding
Residues (chain): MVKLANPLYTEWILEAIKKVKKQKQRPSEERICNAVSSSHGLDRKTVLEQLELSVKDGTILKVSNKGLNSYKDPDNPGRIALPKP
Sequence	E-score
AGAGGCCC	-0.0658
AGACTGTG	-0.206
TCCTCAGA	-0.208
CCTTGTGA	-0.0945
TATCTTGA	-0.057
CGAGCTCC	0.0116
GATAGCGC	0.356
CCGACGCA	0.44
ACGAAAGT	-0.121
GCCATGAA	-0.0867
ACGCGAAA	0.131
TATGGTCA	-0.169
GGTGCAAA	-0.17
CATTAAGG	-0.0206
CACGAGAC	-0.0237
CCTCAACA	-0.0685
CACGTACC	0.0503
AATTCCCG	0.274
GCTCGGCC	0.284
CACCATCA	-0.155
TACAGCCA	-0.0737
AGTCGTTC	-0.158
TAATGTAA	-0.0396
CCTCAGAC	0.0115
GGTGTATA	0.0125
